Published values gathered from unrelated publications.
Parts stem from different laboratories: compare values within a part only. Substitutions count along the parent as printed.

Series 1 — technique: RNA Bind-n-Seq; form: RNA; matrix: in vitro; concentration: 365 nM; baseline: no-protein control; reading: higher = stronger binding
Target: RNA binding protein fox-1 homolog 2, RRM domain, GST-SBP tag (RBFOX2, Homo sapiens, UniProt O43251-10, residues 100-194)
Setting: natural RNA segment, single round, ends assumed
Shared flanks, not repeated: GGGAGUUCUACAGUCCGACGAUC … UGGAAUUCUCGGGUGCCAA
Residues (chain): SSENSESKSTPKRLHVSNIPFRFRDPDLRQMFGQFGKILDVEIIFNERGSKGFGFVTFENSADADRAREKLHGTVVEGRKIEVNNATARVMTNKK
Oligonucleotide	RBNS enrichment (R)
GCUGUGACUUCUUAUCCAGGCCCCCAACUUAUGUCCUUAGGGUCAUCUUGGAGAACCACAAUGGAUUCUUCUGUCUCUAUACUUUCUGGGGUUCUUUCCCCUCCCUCUCA	0.611
ACAACUCUGGGCUCUGUUCAGCACUGUCUUCUGUCAGAGGUGCCUUUUCACAAGUAUGGCGGCUUACCACGAGAUAGCUACUGGGUAAGCAAAGCCUGGGACAUUUGCAA	0.28
AAACUAAAAGGCCUGGCCCCAUUCUGGAAAAGGCAAAGCUGCAUGAGACACAGCCUUCUGCCUCCUCGCCUCUCCUGGACUGGCUUCCUCUUUGAGAAAAUGCACAAAGC	0.503
UUCUAAUGACAAUGAAUGGAAUUAAUCACGCUACAGGUAUAGUAUUACAACUCAUGUUUACUUUUUAAAAUGAUUUAGACUGAUUUUCAGCUUUUAUUUCAUUACAAUUA	0.945
AAAGCACUGAUCGUUCUCCAGUUCUUGCCAAGAUCAUCCCAAGUUGGAUAUCAUCAAAACUAUCUUUGUGCUCCCAAAACUUGGUGUUCAUGUGUAUCCCUUUAAGUUGU	0.443
GCAAAGAAUUCAUAGCAGUUAAUUCCCCUUUUUGACCCUUUUGAGAUGGAACUUUCAUAAAGUUUCUUGGCAGUAGUUUAUUUUGCUUCAAAUAAACUUAUUUGAAAAGU	0.663
UUUUCCUACAUAAUGUGGUUAAAACUUGAAUUUGUGCUUCAGCUCUUCUGUACUUCUUCCUUCCUACAGGCAAAAACACAGGCUGAGACCUAUAGUUCCAUCAAAUUCUU	0.349
AGUUUAACAUCUUUUAAAAUUUGAACACUACGUAGUAGGGUGACUAAUUUUUGAAGAAUAUCACAAAGUUGCUAUUAUGGUAAACUAGUUUCACACUUCAGCAAACAUAA	0.279
CUGUAGAUGCACAGUAGUGUUUUCCCAGAGCAUGUUCAAAAGCCCUGGGUUCAAUCACAAUACUGAAAAGUAGGCCAAAAAACAUUCUGAAAAUGAAAUAUUUGGGUUUU	0.388
UCUAAUCGGUCCCCAAGGAGAAAGAACAUAAACAAAGAGUGAGGUCUUCCCUCCCACUGAACACUAUUCCCAUAGUUUCCUUUUGCUCCCCAGCCUGUAAUUCUAAGUUC	0.571
UUGUGAACCCCUCCCCCCAACUUUUCAUGUUUCUUAAAGGCAUUUUGGUUUUUUAAAAUCUGUACAGCAAGAGCAACUUUUUCUGUCAAAUAAAAAUGAGAAAUGCAGGA	0.553
AGCCCUAGGGGCGUGUCAGCCGCACCUCUGGGACGGGCCCUUCCUUGCGGUGCUGCCGUCCUUUUGGGUUCUUGAUUUCUGGAUACAUGUAGCUUUGCCAGAUAUGUACU	0.425

Series 2 — target: CCND3, cyclin fold, Cln2 fusion (human); technique: yeast growth competition, sequencing; matrix: yeast; setting: weak parent motif; baseline: not given; reading: higher = stronger binding
Starting sequence: RBL2 docking peptide (human); STTRRRLFVENDS; partner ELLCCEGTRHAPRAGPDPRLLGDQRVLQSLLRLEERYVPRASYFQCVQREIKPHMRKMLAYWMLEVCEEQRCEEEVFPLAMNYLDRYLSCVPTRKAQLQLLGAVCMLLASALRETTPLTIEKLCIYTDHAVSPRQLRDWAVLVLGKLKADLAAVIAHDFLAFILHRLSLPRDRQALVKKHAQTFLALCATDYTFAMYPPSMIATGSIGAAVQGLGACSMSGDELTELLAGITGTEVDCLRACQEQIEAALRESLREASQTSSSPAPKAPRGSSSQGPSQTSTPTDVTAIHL
Change	normalised enrichment score
N11W	0.136
R6P	0.0576
D12F	0.0884
V9G	0.0424
R4P	0.152
D12S	0.0859
N11C	0.161
T3S	0.098
L7S	0.128
T3M	0.0753
R4F	0.171
R5G	-0.00231
D12E	0.0452
R5W	0.129
R4Q	0.108
R6S	0.0601
R6F	0.072
F8V	0.15
R4A	0.186
S13C	0.129
V9W	0.149
E10G	0.0914
N11V	0.123
F8T	0.182
E10M	0.216

Series 3 — technique: protein-binding microarray; form: double-stranded DNA, one strand shown; matrix: in vitro; concentration: 0.8 µM; setting: whole 60-bp probe, no competitor; reading: higher = stronger binding; shared flanks, not repeated: … GTCTTGATTCGCTTGACGCTGCTG
Target: Centromere-binding protein 1, full length, N-terminal tag (CBF1, Saccharomyces cerevisiae, UniProt P17106, residues 1-351)
UniProt P17106, sequence (whole entry, looked up): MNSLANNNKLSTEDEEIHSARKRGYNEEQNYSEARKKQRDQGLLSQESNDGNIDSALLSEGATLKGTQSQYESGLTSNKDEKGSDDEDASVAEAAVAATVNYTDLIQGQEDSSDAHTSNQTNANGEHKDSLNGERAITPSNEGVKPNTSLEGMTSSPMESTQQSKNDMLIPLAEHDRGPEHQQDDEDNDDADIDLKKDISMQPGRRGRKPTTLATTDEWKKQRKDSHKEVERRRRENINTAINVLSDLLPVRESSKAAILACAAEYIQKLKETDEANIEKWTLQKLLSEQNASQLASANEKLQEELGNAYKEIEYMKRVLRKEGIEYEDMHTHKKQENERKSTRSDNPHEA
Oligonucleotide	fluorescence intensity
CTATGGAGCATGCGTACACGTGTGCGTATTCTATTC	5100 a.u.
CTATAGGACTACCAACACATGCATGGATGCCAGTTC	536 a.u.
CCTAACTACTATATCCATGTGAGATAGCTTCGTACA	584 a.u.
CCTAACTACTATAGTGATGTTCCATAGCTTCGTACA	525 a.u.
GAATTCGTTTTATCTGATGTCATTCATTGATTGTAG	532 a.u.
GAAAAGAATGTTTGTGACTTCTGCTTCAAATGCTAG	553 a.u.
GAAAAGAACGGTGTCCACATGGTCTTCGCTTCTTAG	694 a.u.
GAACTGATATATATACACGTGAAGCAAAAAAGGTAG	3950 a.u.
CTACAAATTGGTCATCTCACCAGATATGTTATATTC	563 a.u.
GAACGACGATTTGGTCACGAGAGCGAATTGAATTAG	2740 a.u.
CCTAACTACTATAATCTGATTGGATAGCTTCGTACA	525 a.u.
CTATTCAAAAAGGATCAGGTGAGATATTAGAGTTTC	960 a.u.
GAAATCATCGTCCACCACGCCCCTTCCTTTTTCTAG	527 a.u.
GAATTTCGTCCGTAGCACGTAAAAAAGAAAAATTAG	507 a.u.
CTATGGCATTTTAAGCACATGAGGAGATGAACGTTC	650 a.u.
GAAAAGACGACGTTTTTCGTGATAATAAGAAGTTAG	518 a.u.
CTACCAAGATCAAATCTCACATGTTTATCATTCTTC	636 a.u.
GAACACAGAATGAATTTCATCACGTGCGTATTATAG	11500 a.u.
CCTAACTACTATAAGCTTGTGATATAGCTTCGTACA	525 a.u.
GAAAGGCTTTTAAACGTGATTGTGTTGTATCTCTAG	753 a.u.
GAAATTGTCAGTATTGTTGTGACCATTCTTGATTAG	538 a.u.
CTACATGGTGGAAAGTAGGTGACCCTTTGAACATTC	538 a.u.
GAATTGAAGAAGAAAAACATCAGGGACAGATGATAG	545 a.u.
GAAAACCATGGGTGTCACCCTACTGCCGAGCCTTAG	469 a.u.
CTATAGTGAATATATCACGAGTTACAATAGAGTTTC	1100 a.u.

Series 4 — technique: protein-binding microarray; form: double-stranded DNA, one strand shown; matrix: in vitro; concentration: 2200 nM top; setting: 60-bp whole probe; added: salmon DNA 0.4 mg/ml; baseline: random background probes; reading: higher = stronger binding; shared flanks, not repeated: GCCTAGCAC … GTCTTGATTCGCTTGACGCTGCTG
Target: Interferon regulatory factor 7, full length, phosphomimetic (IRF7, Homo sapiens, UniProt Q92985, residues 1-503, S471D/S472D/S475D/S476D/S477D/S483D/S484D/S487D)
Construct (chain): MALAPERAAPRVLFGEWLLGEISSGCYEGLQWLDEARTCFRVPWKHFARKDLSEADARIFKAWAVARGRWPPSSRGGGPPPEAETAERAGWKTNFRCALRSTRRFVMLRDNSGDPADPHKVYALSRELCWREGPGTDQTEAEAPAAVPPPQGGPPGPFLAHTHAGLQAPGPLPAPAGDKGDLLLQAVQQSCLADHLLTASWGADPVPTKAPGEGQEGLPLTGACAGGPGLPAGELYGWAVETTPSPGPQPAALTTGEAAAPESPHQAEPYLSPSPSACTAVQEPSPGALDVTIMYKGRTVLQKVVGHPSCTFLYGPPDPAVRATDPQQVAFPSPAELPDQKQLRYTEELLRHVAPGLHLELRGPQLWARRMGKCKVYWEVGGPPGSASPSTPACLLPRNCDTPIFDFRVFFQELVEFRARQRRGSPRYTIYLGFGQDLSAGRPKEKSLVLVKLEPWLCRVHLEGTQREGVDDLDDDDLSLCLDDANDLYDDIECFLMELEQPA
Oligonucleotide	fitted relative affinity
GACGGTCCCGGACTGGGGACGTGCTAG	-1.04 z-score
TCACCTCTCATTCCAATACTGTGCTAG	2.45 z-score
TTACGTCTCCTTATCCTTTAGTGCTAG	2.39 z-score
TCATGTTTCTCAAATGTTACTGTGCTA	1.51 z-score
TCACTTTTTAAGATCTGACTGTGCTAG	0.849 z-score
GACAGTCTCCTACTGCTGACGTGCTAG	0.516 z-score
AGATATTCAGGTATATAAAGGTGCTAG	-0.125 z-score
TCAACTCTCTGCTTGTGACTGTGCTAG	1.29 z-score
GACGGTCTCCTTATCCTCACGTGCTAG	1.23 z-score
GACGGGCTGCTTATCCTGACGTGCTAG	-0.302 z-score
GACGGTATCCGACTGGGGACGTGCTAG	-0.393 z-score
TTAGGACTGTTACTGCTTTAGTGCTAG	0.296 z-score
TAAGGACTGGGGTTTCGGTTAGTGCTA	2.79 z-score
TAAGATTCCAGTTTCGATTAGTGCTAG	6.69 z-score
TTAGGACTAGGGTATCGGTTAGTGCTA	-0.443 z-score
GACGATCTAAGTCTCGAGACGTGCTAG	0.163 z-score
GACGGTATCGGAATCGGGACGTGCTAG	0.246 z-score
TCATTATTAGTGACTCAGACTGTGCTA	0.318 z-score
TTACGTCTCGGTTTCGGTTAGTGCTAG	7.59 z-score
TTAGGTTTCGGGTATCAGTTAGTGCTA	5.52 z-score
GACGGTATCGACACTGGGGTCGTGCTA	-0.33 z-score
GACGGTTCCCTTGTCCTGACGTGCTAG	1.36 z-score
GACGATACCGGGTTTCGAGACGTGCTA	1.76 z-score
GACGGTATCCTTTTCATGACGTGCTAG	1.36 z-score
CTTTTATTAGTGACTCAGCACGTGCTA	0.364 z-score

Excerpt of the above (series 3):
Oligonucleotide	fluorescence intensity
GAATTCGTTTTATCTGATGTCATTCATTGATTGTAG	532 a.u.
GAAAAGAATGTTTGTGACTTCTGCTTCAAATGCTAG	553 a.u.
GAAAAGAACGGTGTCCACATGGTCTTCGCTTCTTAG	694 a.u.
GAACTGATATATATACACGTGAAGCAAAAAAGGTAG	3950 a.u.
CTACAAATTGGTCATCTCACCAGATATGTTATATTC	563 a.u.
GAACGACGATTTGGTCACGAGAGCGAATTGAATTAG	2740 a.u.
CCTAACTACTATAATCTGATTGGATAGCTTCGTACA	525 a.u.
CTATTCAAAAAGGATCAGGTGAGATATTAGAGTTTC	960 a.u.
GAAATCATCGTCCACCACGCCCCTTCCTTTTTCTAG	527 a.u.
GAATTTCGTCCGTAGCACGTAAAAAAGAAAAATTAG	507 a.u.
CTATGGCATTTTAAGCACATGAGGAGATGAACGTTC	650 a.u.
GAAAAGACGACGTTTTTCGTGATAATAAGAAGTTAG	518 a.u.
CTACCAAGATCAAATCTCACATGTTTATCATTCTTC	636 a.u.
